Measurements gathered from unrelated publications.
Protocols differ between the studies behind these lines. ± gives the spread as reported.

SMILES | target | test | test system | conditions | scale | measurement | value
Cc1cccc(C)c1NC(=O)C1CCCN1Cc1ccccc1 (racemic) | Nav1.4, Pelophylax lessonae | sodium current, use-dependent blocker, vaseline gap voltage clamp | skeletal muscle fibres | 10 Hz pulse trains | – | IC50 | 19.8 ± 2.1 µM
Nc1nc2c(ncn2[C@@H]2O[C@@H]3COP(=O)(O)O[C@H]3[C@H]2O)c(=O)[nH]1 | cone cGMP-gated channel | ion current, agonist, inside-out patch clamp | – | -40 mV, together with: calmodulin 200 nM | – | EC50 | 87 µM
COc1ccc(C2CNC(=O)C2)cc1OC1CCCC1 (stereo not shown) | phosphodiesterase 4, human | enzyme activity, inhibitor | HEK293 expressing CNG C460W/E583M | together with: forskolin 0.5 µM | – | Ki | 0.09 µM
CC(C)C[C@H](N)C(=O)O | Na+-independent amino acid transport, mouse | inhibitor | Ehrlich ascites cells | 1 min, pH 7.4, Na+-free choline medium, together with: methionine | – | Ki | 100 µM
CN(Cc1ccccc1)S(=O)(=O)c1ccc(CN2CCCC2)cc1 | CXCR4 | CXCL12-induced cell invasion, Matrigel invasion | MDA-MB-231 | 10 nM (0.01 µM), together with: CXCL12 200 ng/mL | reference: reference compound as 100% | inhibition | 100%
CC(C)Cn1c(=O)n(C)c(=O)c2[nH]cnc21 | phosphodiesterase 4, human | enzyme activity, inhibitor | HEK293 expressing CNG C460W/E583M | together with: forskolin 0.5 µM | – | Ki | 10 µM
Nc1nc2c(ncn2[C@@H]2O[C@@H]3COP(=O)(O)O[C@H]3[C@H]2O)c(=O)[nH]1 | compound antibody | binding, non-acetylated EIA | – | – | – | EC50 | 0.0117 µM
CC(C)=CCc1c(O)cc(/C=C/c2ccc(O)cc2)cc1O | NF-κB (human) | reporter gene, inhibitor | SW1353 | together with: PMA | – | IC50 | 0.025 µg/mL
O=C1C=CC(OCc2cn(CCOCCOCCN3C(=O)C4(c5ccc(Br)cc53)C(c3ccccc3)C(c3ccccc3)=NN4c3ccccc3)nn2)(c2cc(=O)c3c(O)cc(O)cc3o2)C=C1 (stereo not shown) | ATR, human | inhibitor, Western blot | MCF7 | 10 µM, 30 min pretreatment, together with: 1 µM doxorubicin, 6 h | – | Chk1 phosphorylation | inhibited
CCN(CC)Cc1ccc(S(=O)(=O)N(C)Cc2ccccc2)cc1 | CXCR4 | CXCL12-induced cell invasion, Matrigel invasion | MDA-MB-231 | 100 nM (0.1 µM), together with: CXCL12 200 ng/mL | reference: reference compound as 100% | inhibition | 84%

Some of these lines once more:
SMILES | target | test | test system | conditions | scale | measurement | value
CC(C)C[C@H](N)C(=O)O | Na+-independent amino acid transport, mouse | inhibitor | Ehrlich ascites cells | 1 min, pH 7.4, Na+-free choline medium, together with: methionine | – | Ki | 100 µM
